Results from different studies.
Each line is one published result; not all experiments were run side by side. ± gives the spread as reported.
Target: 5-hydroxytryptamine receptor 2A (HTR2A, Homo sapiens, UniProt P28223)
Sequence of UniProt P28223 (whole entry, looked up): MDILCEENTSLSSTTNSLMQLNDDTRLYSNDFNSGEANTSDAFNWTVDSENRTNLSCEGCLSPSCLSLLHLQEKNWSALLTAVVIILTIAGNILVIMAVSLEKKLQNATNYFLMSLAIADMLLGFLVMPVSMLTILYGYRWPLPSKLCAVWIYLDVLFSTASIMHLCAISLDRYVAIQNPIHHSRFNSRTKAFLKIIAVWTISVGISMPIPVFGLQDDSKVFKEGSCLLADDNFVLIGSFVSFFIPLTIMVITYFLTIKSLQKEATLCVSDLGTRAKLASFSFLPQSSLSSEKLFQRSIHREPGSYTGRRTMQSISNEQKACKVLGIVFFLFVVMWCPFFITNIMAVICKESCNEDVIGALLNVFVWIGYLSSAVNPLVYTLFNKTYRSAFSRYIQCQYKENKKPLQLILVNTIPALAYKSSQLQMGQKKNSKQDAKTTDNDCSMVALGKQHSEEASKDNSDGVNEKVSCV

CNC(C)Cc1ccc2nsnc2c1 (stereo not shown)  Emax (agonist; baseline: 5-HT): 67.2 ± 2.3%
COc1cc(CCNC(C)c2ccccc2O)c(OC)cc1Br (stereo not shown)  Emax (agonist): 97%
CN1CCN(c2cc(-c3ccncc3)c(-c3ccc4ccccc4c3)nn2)CC1  inhibition (antagonist, FLIPR; 10 µM): 1.3%
COc1cc(CCNC(C)c2ccccc2O)c(OC)cc1C#N (stereo not shown)  Emax (agonist): 97%
COc1c(O)cc2c3c1-c1cc4c(cc1CC3N(C)CC2)OCO4 (stereo not shown)  apparent Kb (calcium flux, antagonist, FLIPR; HEK293; added: serotonin): 282 ± 37 nM
CCCC(NCCc1cc(OC)c(C#N)cc1OC)c1ccccc1O (stereo not shown)  Emax (agonist): 64%
N#C[C@@]12C[C@@H]1[C@@H](n1cnc3c(N)nc(Cl)nc31)[C@H](O)[C@@H]2O  activity (concentration not given): inactive
COc1cc(CC(C)N)c(OC)cc1I (racemic)  Hill coefficient (binding, agonist, radioligand binding): 0.7
COc1c(Br)c2c3c(c1OC)-c1cc4c(cc1C[C@@H]3N(C)CC2)OCO4  apparent Kb (calcium flux, antagonist, FLIPR; HEK293; added: serotonin): 48 ± 2 nM
CN1CCN(c2nc(N)c3ccccc3n2)CC1  inhibition (radioligand binding, radioligand competition binding; 0.1 µM, second replicate; baseline: control specific binding): 9.4%
CNC(C)Cc1ccc2n[se]nc2c1 (stereo not shown)  Emax (agonist; baseline: 5-HT): 45.8 ± 4.1%
COc1c(O)c(I)c2c3c1-c1cc4c(cc1CC3N(C)CC2)OCO4 (stereo not shown)  apparent Kb (calcium flux, antagonist, FLIPR; HEK293; added: serotonin): 133 ± 27 nM
Cn1cccc1-c1cccnc1  inhibition (binding; 50 µM): -11.3%

Repeated from above:
COc1cc(CC(C)N)c(OC)cc1I (racemic)  Hill coefficient (binding, agonist, radioligand binding): 0.7
CNC(C)Cc1ccc2nsnc2c1 (stereo not shown)  Emax (agonist; baseline: 5-HT): 67.2 ± 2.3%
